{"data": "Published values gathered from unrelated publications", "note": "Each line is one published result; not all experiments were run side by side."}
{"SMILES": "CCO[C@H]1CCN(Cc2c(OC)cc(C)c3[nH]ccc23)[C@H](c2ccc(C(=O)O)cc2)C1", "system": "moderate hepatic impairment, plasma", "setting": "oral, 200 mg single dose, median", "endpoint": "unbound Tmax", "value": "2.25 h"}
{"SMILES": "CC(C)(N)COCC(=O)N1CCC[C@H](C(=O)NCc2nc(-c3ccc(C(F)(F)F)cc3)cs2)C1", "system": "Sprague-Dawley rat, male, plasma", "setting": "oral, 3 mg/kg", "endpoint": "unbound AUC", "value": "5.5 nM·h"}
{"SMILES": "COc1ccc([C@@H]2Sc3ccccc3N(CCN(C)C)C(=O)[C@@H]2OC(C)=O)cc1", "system": "Sprague-Dawley rat, male", "endpoint": "unbound intrinsic clearance", "value": "2590 mL/min/kg"}
{"SMILES": "Cc1c(C(=O)O)ccc2c3n(nc12)[C@@H]1[C@H](C3)N(CC2CC2)[C@@]2(C(=O)Nc3cc(Cl)ccc32)[C@H]1c1cccc(Cl)c1F", "test": "equilibrium dialysis", "system": "RjHan:WI rat, both sexes, plasma", "setting": "pH 7.4", "endpoint": "unbound fraction", "value": 0.001}
{"SMILES": "COc1cc(F)cc2c(N3CCN4c5c(F)cccc5OC[C@@H]4C3)c(C#N)nnc12 (single isomer, unassigned)", "system": "rat, plasma", "endpoint": "unbound fraction", "value": 0.03}
{"SMILES": "CCCC[C@@H]1NC(=O)[C@H](Cc2ccc(O)cc2)NC(=O)[C@@H]2CCCN2C(=O)[C@H](CC(=O)O)NC(=O)[C@H](C)NC(=O)[C@H](Cc2ccccc2)NC(=O)[C@@H]2CSCCC(=O)N3CN(CN(C3)C(=O)CCSC[C@@H](C(=O)N[C@@H](C)C(N)=O)NC1=O)C(=O)CCSC[C@H](NC(C)=O)C(=O)N[C@@H](CC(C)(C)C)C(=O)N1CCC[C@H]1C(=O)N[C@@H](CCC(=O)O)C(=O)N[C@H](CCCCNC(=O)CCc1cn(CCOCCOCCOCCOCCOCCOCCOCCOCCOCCOCCNC(=O)CCOCCN(CCOCCC(=O)NCCOCCOCCOCCOCCOCCOCCOCCOCCOCCOCCn3cc(CCC(=O)NCCCC[C@H]4NC(=O)[C@H](CCC(=O)O)NC(=O)[C@@H]5CCCN5C(=O)[C@H](CC(C)(C)C)NC(=O)[C@@H](NC(C)=O)CSCCC(=O)N5CN6CN(C5)C(=O)CCSC[C@H](NC(=O)[C@H](Cc5ccc(O)cc5)NC(=O)[C@@H]5CCCN5C4=O)C(=O)N[C@@H](Cc4ccccc4)C(=O)N[C@@H](C)C(=O)N[C@@H](CC(=O)O)C(=O)N4CCC[C@H]4C(=O)N[C@@H](Cc4ccc(O)cc4)C(=O)N[C@@H](CCCC)C(=O)N[C@H](C(=O)N[C@@H](C)C(N)=O)CSCCC6=O)nn3)CCOCCC(=O)NCCOCCOCCOCCOCCOCCOCCOCCOCCOCCOCCn3cc(CCC(=O)N[C@H]4CSCCC(=O)N5CN6CN(C5)C(=O)CCSC[C@H](NC(=O)[C@@H](CC(=O)O)NC(=O)[C@H](Cc5cccc7ccccc57)NC(=O)[C@@H]5CCCN5C4=O)C(=O)N[C@@H](CCSC)C(=O)N[C@@H](CCCCNC(=N)N)C(=O)N[C@@H](CC(=O)O)C(=O)N[C@@H](Cc4c[nH]c5ccccc45)C(=O)N[C@@H](CO)C(=O)N[C@@H]([C@@H](C)O)C(=O)N4CCC[C@H]4C(=O)N4C[C@H](O)C[C@H]4C(=O)N[C@@H](Cc4c[nH]c5ccccc45)C(=O)N[C@H](C(N)=O)CSCCC6=O)nn3)nn1)C(=O)N1CCC[C@H]1C(=O)N[C@@H](Cc1ccc(O)cc1)C(=O)N2", "system": "Sprague-Dawley rat", "endpoint": "unbound Vdss", "value": "1.8 L/kg"}
{"SMILES": "CCCCNC(=O)NS(=O)(=O)c1ccc(C)cc1", "system": "Sprague-Dawley rat, male", "endpoint": "unbound intrinsic clearance", "value": "46.1 mL/min/kg"}
{"SMILES": "NCCOCC(=O)N1CCC[C@H](C(=O)NCc2nc(-c3ccc(C(F)(F)F)cc3)cs2)C1", "system": "Sprague-Dawley rat, male, plasma", "setting": "intravenous, 1 mg/kg", "endpoint": "unbound hepatic CLint", "value": "120 mL/min/kg"}
{"SMILES": "CCCC[C@@H]1NC(=O)[C@H](Cc2ccc(O)cc2)NC(=O)[C@@H]2CCCN2C(=O)[C@H](CC(=O)O)NC(=O)[C@H](C)NC(=O)[C@H](Cc2ccccc2)NC(=O)[C@@H]2CSCCC(=O)N3CN(CN(C3)C(=O)CCSC[C@@H](C(=O)N[C@@H](CNC(=O)CCOCCOCCOCCOCCOCCOCCOCCOCCOCCOCCOCCOCCn3cc(CCC(=O)NCCC(=O)N(C)CC(=O)N(C)CC(=O)N(C)CC(=O)N(C)CC(=O)N(C)CC(=O)N(C)CC(=O)N(C)CC(=O)N(C)CC(=O)N(C)CC(=O)N(C)CC(=O)N[C@H]4CSCCC(=O)N5CN6CN(C5)C(=O)CCSC[C@H](NC(=O)[C@@H](CC(=O)O)NC(=O)[C@H](Cc5cccc7ccccc57)NC(=O)[C@@H]5CCCN5C4=O)C(=O)N[C@@H](CCSC)C(=O)N[C@@H](CCCCNC(=N)N)C(=O)N[C@@H](CC(=O)O)C(=O)N[C@@H](Cc4c[nH]c5ccccc45)C(=O)N[C@@H](CO)C(=O)N[C@@H]([C@@H](C)O)C(=O)N4CCC[C@H]4C(=O)N4C[C@H](O)C[C@H]4C(=O)N[C@@H](Cc4c[nH]c5ccccc45)C(=O)N[C@H](C(N)=O)CSCCC6=O)nn3)C(N)=O)NC1=O)C(=O)CCSC[C@H](NC(C)=O)C(=O)N[C@@H](CC(C)(C)C)C(=O)N1CCC[C@H]1C(=O)N[C@@H](CCC(=O)O)C(=O)N[C@H](C)C(=O)N1CCC[C@H]1C(=O)N[C@@H](Cc1ccc(O)cc1)C(=O)N2", "system": "Sprague-Dawley rat", "endpoint": "unbound clearance", "value": "55 mL/min/kg"}
{"note": "Excerpt of the above:"}
{"SMILES": "COc1ccc([C@@H]2Sc3ccccc3N(CCN(C)C)C(=O)[C@@H]2OC(C)=O)cc1", "system": "Sprague-Dawley rat, male", "endpoint": "unbound intrinsic clearance", "value": "2590 mL/min/kg"}
